Measured values from different studies.
Every numbered part comes from another study and shows a few of its results, in no order.

Block 1 — method: protein-binding microarray; form: hairpin DNA; sample: in vitro; tested at: not given; baseline: not given; reading: higher = stronger binding
Target: Hepatocyte nuclear factor 3-beta, forkhead domain (FOXA2, Homo sapiens, UniProt Q9Y261, residues 142-269)
Setting: whole hairpin DNA, median over replicate spots
Target sequence (chain): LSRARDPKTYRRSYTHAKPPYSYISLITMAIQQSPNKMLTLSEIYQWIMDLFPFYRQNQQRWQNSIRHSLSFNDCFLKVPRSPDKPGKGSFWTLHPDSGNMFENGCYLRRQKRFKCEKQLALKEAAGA
Strand	median fluorescence [a.u.]
GAGGCCATGTACGCAACGCCTCCTGGCGTTGCGTACATGGCCTCACACTC (5mC at 12)	3260
GAGGCCATGCAAATAACGCCTCCTGGCGTTATTTGCATGGCCTCACACTC	3400
GAGGCCATGTACGCAACGCCTCCTGGCGTTGCGTACATGGCCTCACACTC (5mC at 32)	3620
GAGGCCCTGTAACCAACGCCTCCTGGCGTTGGTTACAGGGCCTCACACTC (5mC at 7)	3010
GAGGCCATGCAAACCGCGCCTCCTGGCGCGGTTTGCATGGCCTCACACTC	3510
GAGGCCATGTAAACAACGCCTCCTGGCGTTGTTTACATGGCCTCACACTC	4810
GAGGCCATGTAACCTACGCCTCCTGGCGTAGGTTACATGGCCTCACACTC	3020
GAGGCCATGAAAACAACGCCTCCTGGCGTTGTTTTCATGGCCTCACACTC	3150
GAGGCCATGCAACGAACGCCTCCTGGCGTTCGTTGCATGGCCTCACACTC (5mC at 13 31)	3320
GAGGCCATGTCAACAACGCCTCCTGGCGTTGTTGACATGGCCTCACACTC	4180
GAGGCCATGTAACCAAAGCCTCCTGGCTTTGGTTACATGGCCTCACACTC	2850
GAGGCCCGGTAACCAACGCCTCCTGGCGTTGGTTACCGGGCCTCACACTC (5mC at 7)	3370
GAGGCCGTGCAAACAACGCCTCCTGGCGTTGTTTGCACGGCCTCACACTC (5mC at 38)	3780
GAGGCCATGTCGCCAACGCCTCCTGGCGTTGGCGACATGGCCTCACACTC (5mC at 11)	3190
GAGGCCATGCAAAGAACGCCTCCTGGCGTTCTTTGCATGGCCTCACACTC (5mC at 31)	3090
GAGGCCATGTAACCAAGGCCTCCTGGCCTTGGTTACATGGCCTCACACTC (5mC at 28)	3040
GAGGCCATGTCGACAACGCCTCCTGGCGTTGTCGACATGGCCTCACACTC (5mC at 33)	3290
GAGGCCATGCCAACAACGCCTCCTGGCGTTGTTGGCATGGCCTCACACTC (5mC at 11)	3260
GAGGCCATGTAACCACCGCCTCCTGGCGGTGGTTACATGGCCTCACACTC (5mC at 16)	3230
GAGGCCATGCCAACAACGCCTCCTGGCGTTGTTGGCATGGCCTCACACTC	3170
GAGGCCATGCAAACATCGCCTCCTGGCGATGTTTGCATGGCCTCACACTC	3680
GAGGCCCGGTAACCAACGCCTCCTGGCGTTGGTTACCGGGCCTCACACTC (5mC at 37)	3370

Block 2 — method: EMSA with sequencing; form: double-stranded DNA, one strand shown; sample: in vitro; tested at: 10 and 20 nM; baseline: negative control set to 0; reading: higher = stronger binding
Target: Hepatocyte nuclear factor 3-alpha (Foxa1, Mus musculus, UniProt P35582, residues 1-468, full length assumed)
Setting: whole designed probe, mean of two concentrations, ends assumed
All sequences stand within: GTGAGCGGTGCCCATTGATGGGGAAC … TTTCACTGGGATCGTGGGGAC
Residues (chain): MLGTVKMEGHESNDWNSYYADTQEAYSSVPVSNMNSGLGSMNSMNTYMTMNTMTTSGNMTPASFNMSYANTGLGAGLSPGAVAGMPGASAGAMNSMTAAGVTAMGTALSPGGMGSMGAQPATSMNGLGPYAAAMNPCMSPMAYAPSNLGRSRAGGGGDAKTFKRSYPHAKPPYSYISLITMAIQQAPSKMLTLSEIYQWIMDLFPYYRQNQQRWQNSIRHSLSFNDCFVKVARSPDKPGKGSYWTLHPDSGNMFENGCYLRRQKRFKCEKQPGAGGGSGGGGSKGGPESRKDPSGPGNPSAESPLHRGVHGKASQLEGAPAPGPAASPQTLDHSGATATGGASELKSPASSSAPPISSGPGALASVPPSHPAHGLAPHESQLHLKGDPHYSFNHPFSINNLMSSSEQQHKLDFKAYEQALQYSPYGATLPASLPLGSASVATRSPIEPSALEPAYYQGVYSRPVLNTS
Strand	normalised bound fraction [ratio]
GTAACTGTGAGATTTCTGAATTTACAACCTCCCTACAGGAAGTACCAGGTGGCCACGAAAGGCAGCATGGTCCCCATCTCTAATTAAGCTAATGTAATCTAGTGCCACAAGATGGCGCCAAACCACAGATGAAACTGACGCCAATTTGGATTCTTTGGGTGGATGGATCTCCCAGAACTTCCAGCTGGCTAGA	0.159
TACCAACCAAAGATTTTGAAAAGAGAGTCGGTCCTTGATGATTCAATTTCAAGGCCAAACCATCACAGGGACCACTTTGGAAGTAATATTAAGTAATCTAGCATCCTTTTAGTTAATGCTAATGGTTAGCTTGGTTTTCTGTTATGTATAGTCAAAAGGATTCTACATGATTAAGCCAGAAGTATCTATTTAG	-0.044
ATCTTCCCCCTCTTCCTTGCCCCACCAGCTCACCTTCCCGGGTATCTGCAAATAAGTATTTATTTTCAAGCCGGCATTCGTTAACCCTCTTCACGCGCATACTGCACATTGGTCTGGATGAATCATGGTCCTTTGGCGACGCCAGGCTCCGGGAGAGCAAAGCACCGTGTCAGGGCCATGATCCGGGGTGGCC	0.15
TAAGTTTGTCTTTTCTAATGAAGAAAAAAAAGAGTTTGAGAAAGGAACGATACCAATCTATGATGATCCATCAGCATCGCATCCCAGCCTGTGTAATCTTGAAGTGAAAGGGACAGGGAGAAGCCAGGGCCAGAAAGTGCATTTAAACCAGATGGTTCAGTCACAGCGCTGGCCTTAAGTGTCTTACCCAGCA	-0.0484
CTTTTTGGGGTGATGAAAATAATCTAAAATTGACTGTGGTGATTTCAGAGCTCTCAGTATGCTAAAAACCATGGACTTATCCCCTTAGAAAAAGTAAACAAAGAGTTATGAAAAAGAAAAAAAAAGACGTTTTAATTTCTATCACTGAGTGTGCACATGTTTTTAAAAAGTTTTTATTACTATAAACCAACCA	0.411

Block 3 — method: RNA Bind-n-Seq; form: RNA; sample: in vitro; tested at: 365 nM; baseline: no-protein control; reading: higher = stronger binding
Target: RNA binding protein fox-1 homolog 2, RRM domain, GST-SBP tag (RBFOX2, Homo sapiens, UniProt O43251-10, residues 100-194)
Setting: natural RNA segment, single round, ends assumed
All sequences stand within: GGGAGUUCUACAGUCCGACGAUC … UGGAAUUCUCGGGUGCCAA
Target sequence (chain): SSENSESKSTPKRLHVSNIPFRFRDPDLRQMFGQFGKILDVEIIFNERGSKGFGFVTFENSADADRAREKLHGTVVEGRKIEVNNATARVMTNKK
Strand	RBNS enrichment (R)
AAAAGGAAAAUCAAAAUCACUUCUAAUUACAAAAUGUGCUGUUUUGGUGGGGUGGGCAAUCAGAUUAUUAUAGUUGAUGACUGUACCAAAGAUCUGGAAUGGGGGCCACC	1.25
GUCUAGAUUUUAAAUUAACUGUAGAAGGAAGUCAGACACCCACAGGUUUCUUCUAAUCAAGCUUCCACCCUGCAAUGGCUGUCGUGCCAUCUUCCUUCUGUGUUUUACUC	0.314
AAGUGAAAAUUUAUGAAGAGUAUUUGGAAGUGUGUACAGAAAUAAACUAGACUUACAGGUAGGCUAGAUCAGAACGUUAACAUAUGAACCUGCAGAAAUCUGGUAAGACU	0.641
GCGGCUGAGCUGCUGGCUCUCUGGAGACUCCGUAGAGAACCCAGCGAUCAAAAACCCACUGUGAUGUGUUGGUGGCUUUGUCUGAAGCACCAGGGAGUUUGGUGAAGCUA	0.792
CAGCUGUUCACACAAGGGGGCAGGAGCUCUGGUGGGUGUGCAGCCAUGUGGUCACAGCCUGCCAGCAGCAAGACACCUGGGUCCACCACACCUCAGUGGAAGUAGCAGAA	0.37
CUGCCUAGCUGACUGCUGCACAAGGCUGACUCUGGGCUCUACCCACCCUGCCUGAUGAGCCCUUCACUUUGUCCUCUUCCUGCCUCCUGGGCUCUGCCUUAAUCUCCUGG	0.88
UGUGGUGGUGGAGUGGGGAGCUGGCUUCUGCUGGCCAGGAUAGCUUAACCCUGACUUUGGGAUCUGCCUGCAUCGGCGUUGGCCACUGUCCCCAUUUACAUUUUCCCCAC	0.395
UGGAGGCCAUUAUCACUGGGCUGCUGCUUUCCUGGGCAAGCCACUCUCUAUUUUUCUGCAAAGGUCAAAAGACCCUGGUGUUGGGGGCCCUUUAGAGGGUGUGCUUUGGA	0.506

Block 4 — method: RNA Bind-n-Seq; form: RNA; sample: in vitro; tested at: 200 nM; setting: whole 134-nt RNA, ends assumed; with: 150 mM KCl; baseline: input library; reading: higher = stronger binding
Target: Ras GTPase-activating protein-binding protein 1, full length (G3BP1, Homo sapiens, UniProt Q13283)
UniProt Q13283, sequence (whole entry, looked up): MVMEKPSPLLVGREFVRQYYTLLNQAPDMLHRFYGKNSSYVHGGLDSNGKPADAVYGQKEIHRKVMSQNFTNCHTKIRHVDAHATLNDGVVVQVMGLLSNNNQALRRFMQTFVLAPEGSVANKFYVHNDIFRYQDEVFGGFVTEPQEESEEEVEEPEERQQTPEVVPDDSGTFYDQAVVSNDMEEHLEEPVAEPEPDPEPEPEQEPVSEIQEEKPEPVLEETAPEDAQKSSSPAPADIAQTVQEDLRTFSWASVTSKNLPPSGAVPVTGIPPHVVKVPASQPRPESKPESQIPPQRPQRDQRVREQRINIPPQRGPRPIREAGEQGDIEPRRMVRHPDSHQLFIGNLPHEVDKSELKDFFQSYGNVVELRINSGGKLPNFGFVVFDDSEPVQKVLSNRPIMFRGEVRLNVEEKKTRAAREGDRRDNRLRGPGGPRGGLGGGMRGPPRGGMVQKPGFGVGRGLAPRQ
All sequences stand within: GGGAGUUCUACAGUCCGACGAUC … UGGAAUUCUCGGGUGUCAAGG
Strand	log2 enrichment
UGGCCCUGGUGGCAUGCGGGGAGGAAGAGGUGGCCUCAUGGAUCGUGGUGGUCCCGGUGGAGUGUUCAGAGGUGGCCGUGGUGGAGACAG	0.289
UGGGAGGUGGAUUUUGUUUAUUUUUUUAGCUCAUUUCCAGGGGUGGGAAUUUUUUUUUAAUAUGUGUCAUGAAUAAAGCUGUUUUUGAAA	0.242
CCUGUGCUACACAUCGUAUGUACCGAAUCGGGUUUUUUUGGGUUUUUUUGGGUUUUUGGGAAAGUAUUAUGUUACGCCGUUCGGAUCUGC	-0.846
GUCCUGUGCUACACAUCGUAUGUACCGAAUCGGGAAAAAGGGGAAAAAGGAAAAAGGGGAAAGUAUUAUGUUACGCCGUUCGGAUCUGCA	-0.283
CUCAAGUCCUGUGCUACACAUCGUAUGUACCGAAUCGGGUUGGGGUUGGUUGGAAAGUAUUAUGUUACGCCGUUCGGAUCUGCACUUCCA	0.243
GUCCUGUGCUACACAUCGUAUGUACCGAAUCAAAUUUUUAAAUUUUUUUAAACCCAAAAAAGUAUUAUGUUACGCCGUUCGGAUCUGCAC	-0.345
AAGUCCUGUGCUACACAUCGUAUGUACCGAAUCGGGGCCCCGGGCCCCGGCCCCGGAAAGUAUUAUGUUACGCCGUUCGGAUCUGCACUU	-1.03
UGGCCCUGGUGGCAUGCGGGGAGGAAGAGGUGGCCUCAUGGAUCGUGGUGGUCCCGGUGGAAUGUUCAGAGGUGGCCGUGGUGGAGACUG	0.182
CUCAAGUCCUGUGCUACACAUCGUAUGUACCGAAUCGGUUUGGUUUGGAAAGGAAAGUAUUAUGUUACGCCGUUCGGAUCUGCACUUCCA	-0.479

Excerpt of the above (block 1):
Strand	median fluorescence [a.u.]
GAGGCCATGTCGCCAACGCCTCCTGGCGTTGGCGACATGGCCTCACACTC (5mC at 11)	3190
GAGGCCATGCAAAGAACGCCTCCTGGCGTTCTTTGCATGGCCTCACACTC (5mC at 31)	3090
GAGGCCATGTAACCAAGGCCTCCTGGCCTTGGTTACATGGCCTCACACTC (5mC at 28)	3040
